Measured values pooled from the literature.
Protocols differ between the studies behind these lines. ± marks the error that the study gave.
PARP1: Poly [ADP-ribose] polymerase 1 (PARP1, Homo sapiens, UniProt P09874)
Chain of UniProt P09874 (whole entry, looked up): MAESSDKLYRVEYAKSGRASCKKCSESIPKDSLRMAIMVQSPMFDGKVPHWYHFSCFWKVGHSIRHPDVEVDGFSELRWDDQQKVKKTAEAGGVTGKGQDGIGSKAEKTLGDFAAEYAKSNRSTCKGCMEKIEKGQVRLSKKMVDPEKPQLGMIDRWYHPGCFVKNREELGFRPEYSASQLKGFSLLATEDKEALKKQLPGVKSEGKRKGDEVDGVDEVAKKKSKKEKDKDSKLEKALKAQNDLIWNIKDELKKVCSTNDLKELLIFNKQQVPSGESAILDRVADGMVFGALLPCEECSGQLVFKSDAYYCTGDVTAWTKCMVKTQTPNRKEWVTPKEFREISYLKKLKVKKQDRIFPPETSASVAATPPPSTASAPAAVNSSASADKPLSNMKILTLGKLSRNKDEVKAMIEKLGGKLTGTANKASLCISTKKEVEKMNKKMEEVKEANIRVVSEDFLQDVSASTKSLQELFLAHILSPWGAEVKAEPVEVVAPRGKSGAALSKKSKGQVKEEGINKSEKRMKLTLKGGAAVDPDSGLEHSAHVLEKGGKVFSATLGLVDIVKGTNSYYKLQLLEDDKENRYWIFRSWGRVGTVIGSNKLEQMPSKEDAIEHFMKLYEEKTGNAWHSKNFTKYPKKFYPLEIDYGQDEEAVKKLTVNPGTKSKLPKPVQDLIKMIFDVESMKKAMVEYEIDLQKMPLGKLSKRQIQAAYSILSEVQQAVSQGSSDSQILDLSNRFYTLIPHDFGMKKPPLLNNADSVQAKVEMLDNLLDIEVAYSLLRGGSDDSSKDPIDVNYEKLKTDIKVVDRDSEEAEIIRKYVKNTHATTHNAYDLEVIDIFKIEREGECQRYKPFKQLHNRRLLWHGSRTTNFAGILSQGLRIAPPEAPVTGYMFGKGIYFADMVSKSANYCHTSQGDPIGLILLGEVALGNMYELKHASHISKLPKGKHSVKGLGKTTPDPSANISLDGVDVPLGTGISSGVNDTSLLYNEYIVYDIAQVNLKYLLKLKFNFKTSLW
TGFBR1: TGF-beta receptor type-1 (TGFBR1, Homo sapiens, UniProt P36897)
Chain of UniProt P36897 (whole entry, looked up): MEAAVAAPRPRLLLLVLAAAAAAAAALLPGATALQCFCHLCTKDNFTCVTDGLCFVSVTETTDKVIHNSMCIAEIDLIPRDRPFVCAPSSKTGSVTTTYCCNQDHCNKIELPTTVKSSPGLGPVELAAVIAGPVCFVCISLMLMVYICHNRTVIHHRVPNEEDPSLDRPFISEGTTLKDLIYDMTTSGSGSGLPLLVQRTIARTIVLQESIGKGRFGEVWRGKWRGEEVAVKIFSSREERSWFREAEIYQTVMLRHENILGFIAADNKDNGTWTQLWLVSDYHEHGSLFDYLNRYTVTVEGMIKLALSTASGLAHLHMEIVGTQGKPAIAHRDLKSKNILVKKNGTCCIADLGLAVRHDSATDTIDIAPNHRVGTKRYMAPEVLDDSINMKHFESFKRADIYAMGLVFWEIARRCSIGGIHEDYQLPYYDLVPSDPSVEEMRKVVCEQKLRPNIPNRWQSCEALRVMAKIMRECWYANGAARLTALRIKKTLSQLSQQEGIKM
TYMS: Thymidylate synthase (TYMS, Homo sapiens, UniProt P04818)
Chain of UniProt P04818 (whole entry, looked up): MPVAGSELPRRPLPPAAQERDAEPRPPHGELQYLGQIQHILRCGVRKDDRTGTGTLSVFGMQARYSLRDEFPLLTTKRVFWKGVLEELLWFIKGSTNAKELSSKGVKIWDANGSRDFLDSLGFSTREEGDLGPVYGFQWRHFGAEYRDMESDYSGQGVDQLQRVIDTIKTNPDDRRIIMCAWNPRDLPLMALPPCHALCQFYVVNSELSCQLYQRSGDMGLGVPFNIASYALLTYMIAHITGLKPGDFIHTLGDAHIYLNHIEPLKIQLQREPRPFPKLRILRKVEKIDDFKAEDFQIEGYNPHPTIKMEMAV
Protein lin-28 homolog A: Protein lin-28 homolog A (Mus musculus, UniProt Q8K3Y3)
Chain of UniProt Q8K3Y3 (whole entry, looked up): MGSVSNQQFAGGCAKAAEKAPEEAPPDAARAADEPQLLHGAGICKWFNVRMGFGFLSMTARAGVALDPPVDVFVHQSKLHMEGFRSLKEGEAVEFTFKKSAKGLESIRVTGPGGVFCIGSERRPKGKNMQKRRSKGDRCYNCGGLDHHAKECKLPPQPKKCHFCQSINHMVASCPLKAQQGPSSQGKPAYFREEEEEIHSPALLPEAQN
BLK: Tyrosine-protein kinase Blk (BLK, Homo sapiens, UniProt P51451)
Chain of UniProt P51451 (whole entry, looked up): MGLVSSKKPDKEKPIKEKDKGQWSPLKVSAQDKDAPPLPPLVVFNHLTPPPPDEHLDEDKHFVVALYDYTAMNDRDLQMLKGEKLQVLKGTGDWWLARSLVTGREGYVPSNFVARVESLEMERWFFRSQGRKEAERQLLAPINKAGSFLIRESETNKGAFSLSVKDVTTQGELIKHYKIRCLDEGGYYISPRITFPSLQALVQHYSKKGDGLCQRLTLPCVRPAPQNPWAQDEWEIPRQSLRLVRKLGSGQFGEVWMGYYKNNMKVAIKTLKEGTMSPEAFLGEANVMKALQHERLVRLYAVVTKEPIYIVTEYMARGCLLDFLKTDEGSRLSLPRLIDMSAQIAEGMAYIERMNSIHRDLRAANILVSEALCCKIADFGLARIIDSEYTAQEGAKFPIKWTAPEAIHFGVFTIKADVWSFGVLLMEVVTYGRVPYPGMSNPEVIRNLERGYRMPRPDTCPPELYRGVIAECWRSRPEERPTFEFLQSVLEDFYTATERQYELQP
F11: Coagulation factor XI (F11, Homo sapiens, UniProt P03951)
Chain of UniProt P03951 (whole entry, looked up): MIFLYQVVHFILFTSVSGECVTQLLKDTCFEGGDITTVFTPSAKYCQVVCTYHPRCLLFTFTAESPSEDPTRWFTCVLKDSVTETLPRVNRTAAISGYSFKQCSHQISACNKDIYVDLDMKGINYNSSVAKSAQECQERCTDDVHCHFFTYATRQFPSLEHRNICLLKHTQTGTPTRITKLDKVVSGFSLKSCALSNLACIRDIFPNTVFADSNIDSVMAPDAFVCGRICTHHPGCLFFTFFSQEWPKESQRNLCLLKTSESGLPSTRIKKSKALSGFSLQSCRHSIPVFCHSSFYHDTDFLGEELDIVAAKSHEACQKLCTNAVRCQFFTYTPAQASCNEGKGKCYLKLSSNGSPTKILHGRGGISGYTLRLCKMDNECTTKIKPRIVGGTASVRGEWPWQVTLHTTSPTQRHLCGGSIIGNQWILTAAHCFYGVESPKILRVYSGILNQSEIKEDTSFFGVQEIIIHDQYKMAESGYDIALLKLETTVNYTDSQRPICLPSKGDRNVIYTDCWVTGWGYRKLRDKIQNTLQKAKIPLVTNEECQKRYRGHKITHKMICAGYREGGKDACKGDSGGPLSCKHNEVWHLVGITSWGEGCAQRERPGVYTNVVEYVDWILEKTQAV
DCN1-like protein 1 PONY domain: DCN1-like protein 1, PONY domain (Homo sapiens, UniProt Q96GG9)
Chain of UniProt O43914 (whole entry, looked up): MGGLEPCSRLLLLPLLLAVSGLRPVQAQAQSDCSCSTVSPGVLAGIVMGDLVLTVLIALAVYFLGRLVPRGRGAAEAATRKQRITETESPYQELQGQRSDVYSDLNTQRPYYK
Chain of UniProt Q9P0L9 (whole entry, unmodified, looked up): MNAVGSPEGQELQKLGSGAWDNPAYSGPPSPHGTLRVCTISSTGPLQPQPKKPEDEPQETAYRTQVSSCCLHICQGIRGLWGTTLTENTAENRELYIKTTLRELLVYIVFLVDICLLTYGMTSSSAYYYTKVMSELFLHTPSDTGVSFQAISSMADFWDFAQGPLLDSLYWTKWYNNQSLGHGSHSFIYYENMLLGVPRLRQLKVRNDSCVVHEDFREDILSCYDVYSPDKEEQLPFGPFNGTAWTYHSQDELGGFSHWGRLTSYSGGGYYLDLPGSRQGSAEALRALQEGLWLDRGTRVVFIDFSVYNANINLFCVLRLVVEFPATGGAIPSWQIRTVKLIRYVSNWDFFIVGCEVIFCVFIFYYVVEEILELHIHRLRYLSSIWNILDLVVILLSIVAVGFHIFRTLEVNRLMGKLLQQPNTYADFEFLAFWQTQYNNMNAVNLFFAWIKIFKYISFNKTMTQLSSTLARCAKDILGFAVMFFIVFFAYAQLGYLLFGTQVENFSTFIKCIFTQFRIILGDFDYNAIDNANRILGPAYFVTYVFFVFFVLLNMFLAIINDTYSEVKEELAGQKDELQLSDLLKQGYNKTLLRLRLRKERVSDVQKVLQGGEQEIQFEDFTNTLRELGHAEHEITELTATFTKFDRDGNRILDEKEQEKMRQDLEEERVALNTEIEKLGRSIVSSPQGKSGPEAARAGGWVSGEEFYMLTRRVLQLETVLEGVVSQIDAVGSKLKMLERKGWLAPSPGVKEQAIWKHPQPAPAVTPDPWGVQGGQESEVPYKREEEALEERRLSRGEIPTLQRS
Chain of UniProt P07237 (whole entry, looked up): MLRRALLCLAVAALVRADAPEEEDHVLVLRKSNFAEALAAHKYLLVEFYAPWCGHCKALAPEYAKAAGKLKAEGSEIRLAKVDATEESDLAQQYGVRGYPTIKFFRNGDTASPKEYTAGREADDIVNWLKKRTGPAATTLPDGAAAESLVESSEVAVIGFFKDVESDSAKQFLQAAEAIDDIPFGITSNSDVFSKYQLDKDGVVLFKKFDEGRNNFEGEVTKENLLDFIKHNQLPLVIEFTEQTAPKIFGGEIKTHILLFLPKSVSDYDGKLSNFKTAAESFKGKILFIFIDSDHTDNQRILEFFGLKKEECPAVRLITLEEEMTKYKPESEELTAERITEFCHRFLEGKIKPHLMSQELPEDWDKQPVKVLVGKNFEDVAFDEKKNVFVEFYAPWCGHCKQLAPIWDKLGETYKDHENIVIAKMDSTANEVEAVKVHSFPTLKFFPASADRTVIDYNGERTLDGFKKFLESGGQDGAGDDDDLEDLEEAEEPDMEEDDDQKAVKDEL
Chain of UniProt Q15391 (whole entry, unmodified, looked up): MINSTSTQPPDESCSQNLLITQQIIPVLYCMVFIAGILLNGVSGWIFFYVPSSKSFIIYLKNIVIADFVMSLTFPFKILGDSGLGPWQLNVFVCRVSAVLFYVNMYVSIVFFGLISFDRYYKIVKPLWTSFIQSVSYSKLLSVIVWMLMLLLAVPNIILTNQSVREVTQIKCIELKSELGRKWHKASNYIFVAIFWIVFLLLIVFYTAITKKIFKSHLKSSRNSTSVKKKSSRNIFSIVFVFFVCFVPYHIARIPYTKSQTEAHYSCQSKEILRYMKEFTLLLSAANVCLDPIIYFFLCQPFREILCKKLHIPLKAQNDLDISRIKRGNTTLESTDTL

| SMILES | tested on | test | system | setting | scale | endpoint | value |
| --- | --- | --- | --- | --- | --- | --- | --- |
| CCCC(C)N1CCC(N(Cc2ccccc2NC(=O)CC)C(=O)Nc2cccc(C(F)(F)F)c2)CC1 (stereo not shown) | DCN1-like protein 1 (Homo sapiens, UniProt Q96GG9) | inhibitor, pulse-chase | – | preincubation 24 h | – | IC50 | 382 ± 51 nM |
| COc1cc(C(=O)NCC2(N(C)C)CCCC2)cc(OC)c1OCc1ccccc1 | glycine transporter 2 (Xenopus tropicalis, UniProt A0A7D9NK84) | glycine uptake, inhibitor | HEK293F | with: 10 nM [3H]glycine | – | IC50 | 436 nM |
| O=c1ccn([C@@H]2O[C@H](COP(=O)(O)OP(=O)(O)O[C@H]3O[C@H](CO)[C@@H](O)[C@H](O)[C@H]3O)[C@@H](O)[C@H]2O)c(=S)[nH]1 | P2Y purinoceptor 14 (P2RY14, Homo sapiens, UniProt Q15391, K277A) | – | – | – | – | Ki | > 3000 nM |
| NC(=O)c1cccc2c1O/C(=C\c1ccc(C(=O)N3CCCN(c4cccnc4)CC3)s1)C2=O | PARP1 | inhibitor | – | – | – | IC50 | 65 nM |
| Cc1cccc(-c2nc(-c3ccc(NS(C)(=O)=O)cc3)[nH]c2-c2ccncc2)c1 | TGFBR1 | binding, LanthaScreen kinase binding | – | – | – | IC50 | 1090 ± 225 nM |
| COc1c(O)c(C)cc2c1C(=O)c1c(cc(O)c(O)c1O)C2=O | HK-2 co-cultured with HepaRG | MTT | – | 33.33 µM, 24 h | baseline: untreated control | viability | 97.6 ± 6.95% |
| Fc1ccc(-c2nc(C3CCCCC3)[nH]c2-c2ccncc2)cc1 | TGFBR1 | binding, LanthaScreen kinase binding | – | – | – | IC50 | 251 ± 35.3 nM |
| NS(=O)(=O)c1ccc(CNc2ccnc(Nc3cccc(NC(=O)N4CCCC4)c3)n2)cc1 | 16-kinase panel | radiometric | – | 1 µM, ATP at Km | below 10% of control | number of kinases inhibited | 0 |
| Fc1ccc(-c2nc(-c3ccccc3)[nH]c2-c2ccncc2)cc1 | TGFBR1 | binding, LanthaScreen kinase binding | – | – | – | IC50 | 731 ± 107 nM |
| COC(=O)C1CCN(C(=O)c2ccc(SCc3cnc4nc(N)nc(N)c4n3)nc2)CC1 | TYMS | inhibitor | – | – | – | IC50 | > 100000 nM |
| Cc1cc(CSC(=N)N)c(C)cc1CSC(=N)N | Protein lin-28 homolog A | – | – | – | – | IC50 | 14100 nM |
| Nc1nc(N)c2nc(CNc3cccc4ccccc34)cnc2n1 | TYMS | inhibitor | – | – | – | IC50 | > 100000 nM |
| CCCCOc1cc(C(=O)NCCN(CC)CC)c2ccccc2n1 | PKD2L1 (Homo sapiens, UniProt Q9P0L9, F549I) | ion current | – | – | – | IC50 | 68900 nM |
| CCNc1ccc(C(N)=O)cn1 | NNMT (Homo sapiens, UniProt P40261) | enzyme activity, inhibitor | – | – | – | IC50 | > 25100 nM |
| C/C(=C\CNc1ncnc2[nH]cnc12)CO | Gelsolin, N184K peptide (GSN, Homo sapiens, UniProt P06396) | – | – | – | – | IC50 | 19000 ± 1700 nM |
| Cc1cncn1Cc1ccccc1 | QPCT (Homo sapiens, UniProt Q16769) | – | – | – | – | IC50 | 1820 nM |
| COc1cc(O)ccc1C1CC(=O)Nc2c1c(=O)nc(SCc1ccccc1Cl)n2C (stereo not shown) | Protein lin-28 homolog A | – | – | – | – | IC50 | 12600 nM |
| Nc1ccnc(-c2ccccc2)c1 | TMEM175 (Homo sapiens, UniProt Q9BSA9) | potassium flux, inhibitor | proteoliposomes | – | – | IC50 | ~31000 nM |
| Cc1cnc(-c2ccc(-c3ccc(NC(=O)Nc4c(F)cc(F)cc4F)cc3F)c3c2C(=O)NC3)[nH]1 | BLK | kinase activity, inhibitor, cell-free | – | 90 min, 28 °C, with: ATP | – | IC50 | 0.74 nM |
| COc1ccc(F)c(CNC(=O)c2cn(Cc3ccc(Cn4ccccc4=O)cc3)nc2CN(C)C)c1F | F11 | – | – | – | – | IC50 | > 40000 nM |
| COc1c([C@H]2[C@H](C(=O)Nc3ccnc(C(N)=O)c3)O[C@@](C)(C(F)(F)F)[C@H]2C)ccc(F)c1F | SLC6A2 (Homo sapiens, UniProt P23975) | functional activity, antagonist | – | – | – | IC50 | ≥ 30000 nM |
| CCc1ccc(NC(=O)Nc2c[nH]c3ccccc23)cc1 | TYRO protein tyrosine kinase-binding protein, with TREM1 (TYROBP, Homo sapiens, UniProt O43914) | split luciferase reporter | human cells | 6 h, treatment 48 h after induction, with: doxycycline induction | – | IC50 | 4500 ± 2000 nM |
| O=C1c2cccc(O)c2C(=O)c2c(O)cc(CO)cc21 | HK-2 co-cultured with HepaRG | MTT | – | 33.33 µM, 24 h | baseline: untreated control | viability | 105 ± 11.6% |
| COc1ccc(Oc2ccc(CN(Cc3ccccc3)Cc3cnc4nc(N)nc(N)c4n3)cc2)cc1 | TYMS | inhibitor | – | – | – | IC50 | > 100000 nM |
| NC(=O)c1cccc2c1O/C(=C\c1ccc(C(=O)N3CCN(c4nc5cc(Cl)ccc5[nH]4)CC3)s1)C2=O | PARP1 | inhibitor | – | – | – | IC50 | 140 nM |
| CC1=C(CC(=O)O)c2cc(F)ccc2/C1=C\c1ccc([S+](C)[O-])cc1 (stereo not shown) | P4HB (Homo sapiens, UniProt P07237) | insulin reduction, inhibitor | – | – | – | IC50 | > 50000 nM |

| SMILES | tested on | test | system | setting | scale | endpoint | value |
| --- | --- | --- | --- | --- | --- | --- | --- |
| COc1ccccc1-c1nc(-c2ccc(F)cc2)c(-c2ccncc2)[nH]1 | TGFBR1 | binding, LanthaScreen kinase binding | – | – | – | IC50 | 8.5 ± 5.2 nM |
| O=C(Nc1cccc(Nc2ncc(Br)c(NCCc3cnc[nH]3)n2)c1)N1CCCC1 | 16-kinase panel | radiometric | – | 1 µM, ATP at Km | below 10% of control | number of kinases inhibited | 1 |
| Cc1cccc(-c2nc(-c3ccc(C(=O)O)cc3)[nH]c2-c2ccncc2)c1 | TGFBR1 | binding, LanthaScreen kinase binding | – | – | – | IC50 | 171 ± 15.1 nM |
| CN(Cc1cnc2nc(N)nc(N)c2n1)c1ccc(C(=O)N2CCCCC2)cc1 | TYMS | inhibitor | – | – | – | IC50 | > 100000 nM |
| Fc1ccc(-c2nc(-c3c(Cl)cccc3Cl)[nH]c2-c2ccncc2)cc1 | TGFBR1 | binding, LanthaScreen kinase binding | – | – | – | IC50 | 4.6 ± 1 nM |
| CCOC(=O)C1CCCN1C(=O)c1ccc(NCc2cnc3nc(N)nc(N)c3n2)cc1 (stereo not shown) | TYMS | inhibitor | – | – | – | IC50 | > 100000 nM |
| CC(=O)N[C@@H](CC(C)C)C(=O)N[C@@H](CC(C)C)C(=O)N[C@H](C=O)CCCNC(=N)N | proteinase A | enzyme activity, inhibitor | – | – | – | IC50 | 119000 nM |
| CCn1c(-c2nc3ccc(C(=O)N4CCCC(N)C4)cc3n2C)cc2ccccc21 (stereo not shown) | DRD1 (Homo sapiens, UniProt P21728) | antagonist, TR-FRET | – | – | – | IC50 | 25100 nM |
| CC[C@@H]1[C@H](F)C(=O)N[C@@H]1COc1nccc2cc(C(N)=O)c(OC)cc12 | MLKL (Homo sapiens, UniProt Q8NB16) | ATP-site probe binding, inhibitor, ActivX ATP probe profiling | THP-1 cell lysate | probe site Lys1 | – | IC50 | 1500 nM |
| NC(=O)c1cccc2c1O/C(=C\c1ccc(C(=O)NCC3CNC3)s1)C2=O | PARP1 | inhibitor | – | – | – | IC50 | 74 nM |
| C=CC(=O)NCCN(C(=O)Nc1cccc(C(F)(F)F)c1)C1CCN(C(C)CCC)CC1 (stereo not shown) | DCN1-like protein 1 PONY domain | binding, inhibitor, TR-FRET | – | 24 h, racemic mixture | – | IC50 | > 34500 nM |
| COc1cc2c(c(OC)c1OC)-c1c(cc(OC)c(OC)c1OC)C[C@H](C)[C@H](C)C2 | CYP3A, rat | poziotinib metabolism to M2, inhibitor | rat liver microsomes, 0.3 mg/mL | 30 min, with: poziotinib 5 µM | – | IC50 | 12700 nM |
| COc1ccnc(CNC(=O)c2cn(Cc3ccc(Cn4ccccc4=O)cc3)nc2C2CC2)c1F | F11 | – | – | – | – | IC50 | > 40000 nM |
| Fc1ccc(-c2nc(-c3c(F)cccc3F)[nH]c2-c2ccncc2)cc1 | TGFBR1 | binding, LanthaScreen kinase binding | – | – | – | IC50 | 46.9 ± 12.7 nM |
| CN1CCN(c2ccc(Nc3ncc4cc(C#N)c(=O)n(C5CCCC5)c4n3)cc2)CC1 | CLK2 (Homo sapiens, UniProt P49760) | – | – | – | – | IC50 | 386 nM |
| Nc1ccccc1-c1nc(-c2ccc(F)cc2)c(-c2ccncc2)[nH]1 | TGFBR1 | binding, LanthaScreen kinase binding | – | – | – | IC50 | > 5000 nM |
| CCOc1ccnc(CNC(=O)c2cn(Cc3ccc(Cn4ccccc4=O)cc3)nc2COC)c1F | F11 | – | – | – | – | IC50 | > 40000 nM |
| CCCC(C)N1CCC(N(Cc2cccc(CNC(=O)CCl)c2)C(=O)Nc2cccc(C(F)(F)F)c2)CC1 (stereo not shown) | DCN1-like protein 1 PONY domain | binding, inhibitor, TR-FRET | – | 24 h, racemic mixture | – | IC50 | 28 ± 38 nM |
| NC(=O)c1cccc2c1O/C(=C\c1ccc(C(=O)N3CCN(c4nc5cc(F)ccc5[nH]4)CC3)s1)C2=O | PARP1 | inhibitor | – | – | – | IC50 | 37 nM |
| Cc1cnc(-c2ccc(-c3ccc(NC(=O)Nc4c(F)cc(F)cc4F)cc3F)c3c2C(=O)NC3)[nH]1 | BLK | enzyme activity, inhibitor, mobility shift | – | with: ATP 1 mM | – | IC50 | 5.1 nM |
| COC(=O)CC1=NN(c2nc3ccccc3[nH]2)C(=O)C1 | Protein lin-28 homolog A | – | – | – | – | IC50 | 75800 nM |
| N=C(N)c1ccc(OCCCCCOc2ccc(C(=N)N)cc2)cc1 | PROC (Homo sapiens, UniProt P04070) | – | – | – | – | IC50 | 1100 ± 10 nM |
| Cn1cc2c(C(=O)O)ccc(NS(=O)(=O)c3ccc(OCC4CCC4)c(Cl)c3)c2n1 | PDE8B (Homo sapiens, UniProt O95263) | antagonist | – | off-target panel | – | IC50 | 180000 nM |
| CCCOC(=O)C1CCN(C(=O)c2ccc(N(C)Cc3cnc4nc(N)nc(N)c4n3)cc2)CC1 | TYMS | inhibitor | – | – | – | IC50 | > 100000 nM |
| Cc1ccc(S(=O)(=O)Nc2ccc(C)cc2NS(=O)(=O)c2cccc(C(F)(F)F)c2)cc1 | Protein lin-28 homolog A | – | – | – | – | IC50 | 14800 nM |
| CCCC(C)N1CCC(N(CCNC(=O)CCl)C(=O)Nc2cccc(C(F)(F)F)c2)CC1 (stereo not shown) | DCN1-like protein 1 PONY domain | binding, inhibitor, TR-FRET | – | 24 h, racemic mixture | – | IC50 | 23600 ± 1760 nM |

Some of these lines once more:
| SMILES | tested on | test | system | setting | scale | endpoint | value |
| --- | --- | --- | --- | --- | --- | --- | --- |
| CCCOC(=O)C1CCN(C(=O)c2ccc(N(C)Cc3cnc4nc(N)nc(N)c4n3)cc2)CC1 | TYMS | inhibitor | – | – | – | IC50 | > 100000 nM |
| Cc1cnc(-c2ccc(-c3ccc(NC(=O)Nc4c(F)cc(F)cc4F)cc3F)c3c2C(=O)NC3)[nH]1 | BLK | kinase activity, inhibitor, cell-free | – | 90 min, 28 °C, with: ATP | – | IC50 | 0.74 nM |
| COc1cc(O)ccc1C1CC(=O)Nc2c1c(=O)nc(SCc1ccccc1Cl)n2C (stereo not shown) | Protein lin-28 homolog A | – | – | – | – | IC50 | 12600 nM |
